Measured values from different studies.

Compound | tested on | assay | system | conditions | how to read | endpoint | value
COc1ccc2c(c1)c(CCN1CCOCC1)c(C)n2C(=O)c1cccc(Cl)c1Cl | HepG2 | phospholipidosis induction, inducer, high-content imaging | – | 24 h, primary screen | – | EC50 | 11.2 µM
C=CC=C[C@@H]1CC2=CC(=O)CC[C@]2(C)[C@H]2CC[C@]3(C)[C@H](O)CC[C@H]3[C@H]12 | DU-145 | cell growth or viability, MTT | – | 48 h | – | IC50 | 23.8 µM
CN[C@@](C)(C[18F])C(=O)O | A549 tumour model | – | host not given, bone | 15 min, tumour-bearing | – | tracer uptake | 2.3 %ID/g
CCCCCCCCCCc1cn(Cc2cn([C@H]3C[C@H](OC(=O)OC[C@H]4O[C@@H](n5cc(C)c(=O)[nH]c5=O)C[C@@H]4N=[N+]=[N-])[C@@H](CO)O3)c(=O)[nH]c2=O)nn1 | MT4 | cell growth or viability | – | – | – | IC50 | 33.2 µM
Oc1ccc2c3c1O[C@H]1c4[nH]c5ccccc5c4C[C@@]4(O)[C@@H](C2)N(CC2CC2)CC[C@]314 | HEK293 expressing MOR | morphine-induced cAMP overshoot, HTRF cAMP | – | 1 µM, with: NKH 477 25 nM | relative to: morphine control | Emax | 72%
CCCCCCCCCCc1cn(Cc2cn([C@H]3C[C@H](O)[C@@H](COC(=O)OC[C@H]4O[C@@H](n5cc(C)c(=O)[nH]c5=O)C[C@@H]4N=[N+]=[N-])O3)c(=O)[nH]c2=O)nn1 | MT4 | cell growth or viability | – | – | – | IC50 | 29.2 µM
C#C[C@@]1(O)[C@@H](CO)O[C@@H](n2cc(Cl)c3c(N)ncnc32)[C@@H]1O | HL-60 | cell growth or viability, SRB | – | 48 h | – | GI50 | 0.059 µM
CN=c1nc(-c2ccccc2)n(-c2ccccc2)s1 | HEK293 expressing MOR | cAMP overshoot, inhibitor, HTRF cAMP | – | with: morphine then naloxone | – | IC50 | 16.4 µM
CC(C)[C@@H]1NC(=O)[C@@H]2CSSC[C@H](NC(=O)[C@@H](N)CCCCN)C(=O)N[C@@H](CCCNC(=N)N)C(=O)N[C@@H](CCC(=O)O)C(=O)N[C@H]3CSSC[C@H](NC(=O)[C@H](CCCCN)NC(=O)CNC(=O)[C@H](CC(N)=O)NC1=O)C(=O)N[C@@H](C(C)C)C(=O)N[C@H](C(=O)N1CCC[C@H]1C(=O)N[C@@H](C)C(=O)O)CSSC[C@H](NC(=O)[C@H](CO)NC(=O)[C@@H]1CCCN1C(=O)[C@H](CO)NC(=O)[C@H]([C@@H](C)O)NC(=O)[C@H](CC(N)=O)NC(=O)CNC3=O)C(=O)N[C@@H](Cc1ccc(O)cc1)C(=O)N[C@@H](Cc1ccccc1)C(=O)N[C@@H](CO)C(=O)NCC(=O)N[C@@H](CC(N)=O)C(=O)N2 | human CD4 effector memory T cells | flow cytometry | – | 1.5 µM, 30 min pre-incubation, with: anti-CD3 for 24 h | relative to: stimulated untreated | CD25 expression | ~55%
C=CCN1CC[C@]23c4c5ccc(O)c4O[C@H]2/C(=N/NC(=O)c2ccccc2)CC[C@@]3(O)[C@H]1C5 | HEK293 expressing MOR | morphine-induced cAMP overshoot, HTRF cAMP | – | 1 µM, with: NKH 477 25 nM | relative to: morphine control | Emax | 48%
C#C[C@@]1(O)[C@@H](CO)O[C@@H](n2cc(Br)c3c(N)ncnc32)[C@@H]1O | HL-60 | cell growth or viability, SRB | – | 48 h | – | GI50 | 0.047 µM
CC(O)(CS(=O)(=O)c1ccc(F)cc1)C(=O)Nc1ccc(C#N)c(C(F)(F)F)c1 (stereo not shown) | VCaP | cell growth or viability, ATP luminescence | – | – | – | IC50 | 4.95 µM
C[C@H](NCCc1ccc(O)cc1)C(=O)c1ccc(OCc2ccccc2)cc1 | SK-BR-3 | – | – | HER2 overexpression | relative to: SK-BR-3 over MCF7, HCT-116 | selectivity ratio | > 20 fold
